# Measurements pooled from the literature.
# Every numbered part comes from another study and shows a few of its results, in no order. Changes are numbered by the printed parent chain.

# Block 1 — target: CCND2, cyclin fold, Cln2 fusion (human); method: yeast growth competition, sequencing; matrix: yeast; notes: weak parent motif; baseline: not given; direction: higher = stronger binding
# Starting sequence: MICAL3 docking peptide (human); LQLRRQLSFSEDS
Variant,normalised enrichment score
E11R,0.364
L7R,-0.246
S10M,0.503
E11F,-0.183
Q2I,-0.00896
D12N,0.291
E11D,0.161
F9D,0.144
R4S,0.403
S8V,0.0684
Q6V,0.0462
L3I,0.715
L7D,-0.0503
L7C,-0.0942
Q2T,0.028
L7M,0.459
R5L,0.253
Q2K,0.213
S10V,-0.0392
L3M,0.217
L3D,0.0024
S8M,-0.258
R5M,0.133
L7G,0.231
L7A,0.0724

# Block 2 — target: JUNB, bZIP domain (human); method: DHFR protein complementation; matrix: yeast; baseline: wild-type JUN-FOS pair; direction: higher = stronger binding
# Notes: single substitutions, most at no-binding floor
# Starting sequence: JUN, bZIP domain (human); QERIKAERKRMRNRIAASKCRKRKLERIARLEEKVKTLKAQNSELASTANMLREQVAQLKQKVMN; partner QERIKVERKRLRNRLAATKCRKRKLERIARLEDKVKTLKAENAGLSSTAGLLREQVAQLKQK
Variant,binding fitness
K36V,-1.36 natural log
I28D,-1.38 natural log
V56K,-1.43 natural log
L38A,-1.58 natural log
I28C,-1.4 natural log
M51K,-0.997 natural log
Q41Y,-1.41 natural log
E32M,-1.16 natural log
A57M,-1.1 natural log
S43M,-1.05 natural log
E44Y,-1.3 natural log
A29L,-1.32 natural log
A40S,-1.3 natural log
A29P,-1.35 natural log
E33L,-1.24 natural log
N42C,-1.43 natural log
M51I,-1.15 natural log
N42W,-1.46 natural log
Q55L,-1.42 natural log
V35C,-1.27 natural log
L31Q,-1.47 natural log
M51A,-0.906 natural log
T48R,-1.23 natural log

# Block 3 — method: protein binding microarray; form: double-stranded DNA, one strand shown; matrix: in vitro; concentration: not given; baseline: not given; direction: higher = stronger binding
# Target: Histone acetyltransferase KAT6A, both winged helices, GST fusion (KAT6A, Homo sapiens, UniProt Q92794, residues 1-181)
# Notes: 8-mer, flanks averaged, mean of 2 arrays, mostly near background
# Construct (chain): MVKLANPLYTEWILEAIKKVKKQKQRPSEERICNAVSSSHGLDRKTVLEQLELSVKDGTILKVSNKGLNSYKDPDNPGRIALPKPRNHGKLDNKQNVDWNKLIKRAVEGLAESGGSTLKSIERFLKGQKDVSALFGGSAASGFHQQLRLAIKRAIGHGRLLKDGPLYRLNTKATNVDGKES
Strand,E-score
GCGACTAC,-0.00204
GCAGGCGA,-0.109
CTATTGCA,-0.0856
GTCCGGGA,0.166
ATTTAGAG,-0.131
ACCCCACT,-0.223
GGACAGTA,0.0323
CCTTGGGA,-0.111
CCCCAAGA,-0.184
CGTCCACG,0.195
CGGATACA,0.237
CATTCTCC,-0.145
TGACACCA,-0.151
ATGCTGTG,-0.1
ATGGGCCC,-0.0805
CCGTGTCC,0.155
GAGAGCGA,0.0274
ACCGAATA,-0.174
CACGAGGG,-0.156
CGCAAAAG,0.163
GTTAGTGA,-0.206
GCTACGAA,0.0371
GTGATCAA,0.0512
AGTTGAGA,-0.286
AATACCTA,-0.137

# Block 4 — method: RNA Bind-n-Seq; form: RNA; matrix: in vitro; concentration: 200 nM; notes: whole 134-nt RNA, ends assumed; together with: 150 mM KCl; baseline: input library; direction: higher = stronger binding
# Target: Ras GTPase-activating protein-binding protein 1, full length (G3BP1, Homo sapiens, UniProt Q13283)
# UniProt Q13283, sequence (whole entry, looked up): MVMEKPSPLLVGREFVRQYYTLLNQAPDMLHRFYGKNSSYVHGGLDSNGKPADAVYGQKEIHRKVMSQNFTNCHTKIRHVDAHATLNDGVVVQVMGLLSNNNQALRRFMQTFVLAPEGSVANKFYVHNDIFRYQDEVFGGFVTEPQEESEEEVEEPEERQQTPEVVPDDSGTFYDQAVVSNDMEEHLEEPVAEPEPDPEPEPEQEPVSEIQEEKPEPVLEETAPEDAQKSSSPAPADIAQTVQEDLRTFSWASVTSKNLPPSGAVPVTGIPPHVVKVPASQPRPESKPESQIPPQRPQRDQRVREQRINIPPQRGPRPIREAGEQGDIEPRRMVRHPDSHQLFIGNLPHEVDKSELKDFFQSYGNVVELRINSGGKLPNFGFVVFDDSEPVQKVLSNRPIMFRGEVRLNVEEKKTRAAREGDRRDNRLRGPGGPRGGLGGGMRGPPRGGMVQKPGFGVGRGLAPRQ
Strand,log2 enrichment
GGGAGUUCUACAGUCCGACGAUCCCUGUGCUACACAUCGUAUGUACCGAAUCGGGGAAAAAAGGGAAAAAAGGAAAAAAGGGGAAAGUAUUAUGUUACGCCGUUCGGAUCUGCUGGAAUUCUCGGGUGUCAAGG,-0.605
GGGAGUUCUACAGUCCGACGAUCUAACUUUAGAGGAGGAUCUGAUGGAUAUGGCAGUGGACGUGGAUUUGGGGAUGGCUAUAAUGGGUAUGGAGGAGGUCCUGGAGGUGGCAAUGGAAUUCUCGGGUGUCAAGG,0.384
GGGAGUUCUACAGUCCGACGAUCUGGCCCUGGUGGCAUGCGGGGAGGAAGAGGUGGCCUCAUGGAUCGUGGUGGUCCCGGUGGAAUAUUCAGAGGUGGCCGUGGUGGAGACAGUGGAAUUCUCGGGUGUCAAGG,0.203
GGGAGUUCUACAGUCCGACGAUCCAAGUCCUGUGCUACACAUCGUAUGUACCGAAUCGGGGAAAGGGGUGGGGUGGGGAAAGUAUUAUGUUACGCCGUUCGGAUCUGCACUUCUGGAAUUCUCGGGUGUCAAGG,1.34
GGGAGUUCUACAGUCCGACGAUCAGUCCUGUGCUACACAUCGUAUGUACCGAAUCGGGUGGGAAAAAGGGAAAAAAAGGGAAAGUAUUAUGUUACGCCGUUCGGAUCUGCACUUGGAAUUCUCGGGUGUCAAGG,-0.209
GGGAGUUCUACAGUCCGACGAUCACCAUGCAGGUGGGCAUCUUUGGGAAAAAGGGCAAGGGGGGGAUAGGGAGGGGGGUAACACUUUGGGAACAGGUGGUCCCAGGUCGUUUCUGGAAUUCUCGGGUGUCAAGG,1.22
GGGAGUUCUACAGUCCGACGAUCUCCUGUGCUACACAUCGUAUGUACCGAAUCGGGAAAAAGGGUUUUUGGGAAAAAAAGGGAAAGUAUUAUGUUACGCCGUUCGGAUCUGCAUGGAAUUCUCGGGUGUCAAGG,-0.546
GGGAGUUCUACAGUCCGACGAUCUAACUUUAGAGGAGGAUCUGAUGGAUAUGGCAGUGGACGUGGAUUUGGGGAUGGCUAUAAUGGGUAUGGAGGAGGACCUGGAGGUGGAAAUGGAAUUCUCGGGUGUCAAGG,0.274
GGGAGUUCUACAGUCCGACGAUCCAAGUCCUGUGCUACACAUCGUAUGUACCGAAUCGGGAAAAAAAGGGAGGGUGGGAAAGUAUUAUGUUACGCCGUUCGGAUCUGCACUUCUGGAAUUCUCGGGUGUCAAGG,0.462
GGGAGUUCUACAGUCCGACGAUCCCUGUGCUACACAUCGUAUGUACCGAAUCGGGAAAAAAAGGGGAAAAAAAGGAAAAAAAGGAAAGUAUUAUGUUACGCCGUUCGGAUCUGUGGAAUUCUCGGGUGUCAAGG,-0.687
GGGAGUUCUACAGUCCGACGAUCCAAGUCCUGUGCUACACAUCGUAUGUACCGAAUCAAACCCAAACCCAAAUUUAAAAAAGUAUUAUGUUACGCCGUUCGGAUCUGCACUUCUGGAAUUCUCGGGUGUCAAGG,-0.472
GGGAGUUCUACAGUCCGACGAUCGCAGGAAGUAAAAACAAAUGGAAAUGCUUCGGAUAGUGGCAGGGGUGGGGGUUGCUAAGGAAAGGGUGGGAUGGGAGUGGGUCAAGAGUUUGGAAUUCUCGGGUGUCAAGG,1.02
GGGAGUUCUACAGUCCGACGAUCCCUCAAGUCCUGUGCUACACAUCGUAUGUACCGAAUCGGUGGUGGUUUUUGGAAAGUAUUAUGUUACGCCGUUCGGAUCUGCACUUCCAGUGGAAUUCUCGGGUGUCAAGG,-0.137
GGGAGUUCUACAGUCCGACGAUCACCAUGCAGGUGGGCAUCUUUGGGAAGUGGGGCAAGGGGGGGAUAGGGAGGGGGGUAACACAUUGGGAACAGGUGGUCCCAGGUCGUUUCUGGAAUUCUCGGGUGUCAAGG,1.11

# Block 5 — method: DHFR PCA, deep sequencing; matrix: yeast; together with: (+)-ABA 200 µM; baseline: wild-type fitted maximum; direction: higher = stronger binding
# Target: ABI1, truncated, D143A, DHFR fusion (Arabidopsis thaliana)
# Notes: methotrexate growth selection, single substitutions
# Starting sequence: PYL1, truncated, DHFR fusion (Arabidopsis thaliana); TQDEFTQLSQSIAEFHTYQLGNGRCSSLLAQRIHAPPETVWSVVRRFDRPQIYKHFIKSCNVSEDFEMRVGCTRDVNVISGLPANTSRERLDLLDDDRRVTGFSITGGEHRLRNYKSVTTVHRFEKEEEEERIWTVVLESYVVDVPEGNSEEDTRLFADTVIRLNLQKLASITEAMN
Variant,relative binding score [%]
C72T,99.9
V137M,19
D95W,60
Q19Y,93.1
W41V,-32.6
T173K,13.8
E131N,116
N149C,61.5
S150Q,77.4
E139A,73.3
E4T,95.4
D95Y,62.7
S117Q,73.9
I52N,90.6
I105Q,-4.58
V145T,87.8
V137L,62.4
I79R,92.5
R90D,22.7
T160Q,75.5

# Block 6 — method: protein-binding microarray; form: double-stranded DNA, one strand shown; matrix: in vitro; concentration: 250 nM; notes: 60-bp whole probe; together with: salmon DNA 0.4 mg/ml; baseline: random background probes; direction: higher = stronger binding; all sequences stand within: GCCTAGCAC … GTCTTGATTCGCTTGACGCTGCTG
# Target: Interferon regulatory factor 5, full length, phosphomimetic (IRF5, Homo sapiens, UniProt Q13568-2, residues 1-514, K96S/S451D/S453D/S456D/S462D)
Strand,log fluorescence
TCAATTCTGAAAATGGAACTGTGCTAG,0.557 z-score
GACGGTATCCTACTGCTGGCGTGCTAG,-0.104 z-score
TTAGGACTGGGGTTTCGCTTAGTGCTA,1.91 z-score
CTCTTTTTGCTTTCTTTTATGTGCTAG,2.72 z-score
TTAGGTATCCTACAGCTTTAGTGCTAG,-0.0884 z-score
TTAGAACTGAGTCTCGATCAGTGCTAG,0.424 z-score
GACGAACTGCGACTGGAGACGTGCTAG,-0.298 z-score
ACTCTTCTTTTTTTTCTTTAGTGCTAG,1.39 z-score
GACGGTTTCGGTATCAGGACGTGCTAG,9.63 z-score
GACGGTTTCCTTTTCCTGACGTGCTAG,1.3 z-score
TCAGGTTTCGGGACTGGGTTAGTGCTA,5.51 z-score
GACAATCTCAGACTGGAGACGTGCTAG,-0.33 z-score
TTAGATATCAGATTCGATTAGTGCTAG,1.33 z-score
GACGGACTGCATTTCCTGACGTGCTAG,-0.392 z-score
TTAGGTATCGACTTTCGGTCAGTGCTA,9.85 z-score
GACGGTCTTCTTCTCCTGACGTGCTAG,0.0517 z-score
CACATCTGCTGTGGGAGCACGTGCTAG,-0.361 z-score
GACGATTTCGAGTATCGAGACGTGCTA,3.3 z-score
TCCCCTCTAGGTTCTCTGAAGGTGCTA,-0.366 z-score
GACGGACTGGGACTGTGGACGTGCTAG,-0.787 z-score
GACGGACTGGGGGCTGGGGACGTGCTA,0.529 z-score

# A few entries again (block 2):
Variant,binding fitness
K36V,-1.36 natural log
I28D,-1.38 natural log
V56K,-1.43 natural log
L38A,-1.58 natural log
I28C,-1.4 natural log
M51K,-0.997 natural log
Q41Y,-1.41 natural log
E32M,-1.16 natural log
A57M,-1.1 natural log
S43M,-1.05 natural log
E44Y,-1.3 natural log
A29L,-1.32 natural log
A40S,-1.3 natural log
A29P,-1.35 natural log
E33L,-1.24 natural log
N42C,-1.43 natural log
